Literature values as cited in several papers.
Compare with care: the assays were run in different laboratories. Numbers after ± are the reported error.

Structure (SMILES) | tested on | test | system | setting | endpoint | result
FC(F)(F)C(F)(F)c1nc(-c2cccnc2)n[nH]1 | Plasmodium falciparum formate-nitrite transporter | L-lactate transport, inhibitor, radiolabelled uptake | yeast |  | IC50 | 8.44 ± 1.85 µM
c1ccc2c(c1)CCCNC2c1c[nH]c2ccccc12 (stereo not drawn) | COLO 320 ABCB1-resistant colon | cytotoxicity |  |  | IC50 | 41.1 µM
COc1cccc(-c2cc(F)ccc2[C@H]2Cc3nc(N)nc(C)c3C(=O)N2)n1 | Hsp90β |  |  |  | IC50 | 0.0008 µM
COc1ccc(C(=O)C=C(O)C(F)(F)C(F)(F)F)c(O)c1 | Plasmodium falciparum formate-nitrite transporter | L-lactate transport, inhibitor, radiolabelled uptake | yeast |  | IC50 | 0.17 ± 0.01 µM
c1ccc2c(c1)CCNC2c1c[nH]c2ncccc12 (stereo not drawn) | COLO 320 ABCB1-resistant colon | cytotoxicity |  |  | IC50 | 53.5 µM
CC(C)NCCCn1c(Sc2cc(Cl)cc(Cl)c2)nc2c(N)ncnc21 | Hsp90β | inhibitor |  |  | IC50 | 41.8 µM
CC(=O)Nc1ccc(NC(=O)c2ccc(C(C)=O)o2)cc1 | urea transporter UT-A1 | inhibitor |  |  | IC50 | < 8 µM
CCc1cccc(Sc2cc(C(=O)N3Cc4ccccc4C3)ccc2O)c1 | Hsp90β | inhibitor |  |  | IC50 | 22.3 µM
Nc1ccc(C(=O)C=C(O)C(F)(F)C(F)(F)F)cn1 | Plasmodium falciparum formate-nitrite transporter | L-lactate transport, inhibitor, radiolabelled uptake | yeast |  | IC50 | 0.19 ± 0.02 µM
C[C@H](CN(C)Cc1ccccc1)NC(=O)c1ccc(-c2noc(C(F)(F)F)n2)cc1 | class IIa HDAC | enzyme activity, inhibitor | HT-29 |  | IC50 | 0.046 ± 0.015 µM
COc1ccc(Nc2nc(Nc3ccc(OCC[18F])cc3)ncc2Br)cc1 |  |  | S180 tumour-bearing mice, brain | intravenous, 30 min | tissue uptake | 1.19 ± 0.18 %ID/g
CC(C)=CCC/C(C)=C/CCn1cc(CC(P(=O)(O)O)P(=O)(O)O)nn1 | geranylgeranyl diphosphate synthase | enzyme activity, inhibitor |  |  | IC50 | 0.173 µM

A few entries again:
Structure (SMILES) | tested on | test | system | setting | endpoint | result
FC(F)(F)C(F)(F)c1nc(-c2cccnc2)n[nH]1 | Plasmodium falciparum formate-nitrite transporter | L-lactate transport, inhibitor, radiolabelled uptake | yeast |  | IC50 | 8.44 ± 1.85 µM
